# Results pooled from the literature.
# A part holds a random share of what one study measured. Positions count from the first letter of the parent shown.

# Series 1 — method: aptamer microarray, sandwich; molecule type: DNA with 2'F-ANA; sample: in vitro; concentration: 200 nM; added: Cy3 exosite-II aptamer, 400 nM; reading: higher = stronger binding; sequence: GGTTGGTGTGGTTGG
# Target: Prothrombin, mature alpha-thrombin (F2, Homo sapiens, UniProt P00734)
# Notes: whole 15-mer aptamer, many near background
Modification,mean fluorescence intensity [a.u.]
2'F-ANA at 1 5 7 8 9 10 11 13 15,58.3
2'F-ANA at 4 5 12,161
2'F-ANA at 1 2 4 5 7 11 12 14 15,48.8
2'F-ANA at 3 5 7 8 10 11 14 15,48.5
2'F-ANA at 5 6 12 13,124
2'F-ANA at 3 4 5 6 7 8 9 10,55.5
2'F-ANA at 1 2 3 7 15,302
2'F-ANA at 2 3 4 5 6 7 8 9 13 14,49.7
2'F-ANA at 1 4 8 10 11 12 13 14,44.2
2'F-ANA at 1 2 3 4 8 13,152
2'F-ANA at 2 9 13,344
2'F-ANA at 1 2 3 4 6 8 13 14,58.7
2'F-ANA at 3 4 7 9 10 11 13 14,196
2'F-ANA at 3 7 8 10 12,727
2'F-ANA at 3 4 9 11 12 13,703
2'F-ANA at 1 2 6 10 11 14 15,49.2
2'F-ANA at 1 3 4 7 9 10 12 13,103
2'F-ANA at 1 2 8 11 12 13 14 15,66.7
2'F-ANA at 1 4 5 6 7 8 10 11 12 13 14 15,238
2'F-ANA at 1 2 3 5 8 13 14 15,48.5
2'F-ANA at 1 2 5 11 13,47
2'F-ANA at 2 6 7 8 9 12 14,179

# Series 2 — method: universal PBM; molecule type: double-stranded DNA, one strand shown; sample: in vitro; concentration: not given; reading: higher = stronger binding
# Target: Sal-like protein 4, full length isoform B (SALL4, Homo sapiens, UniProt Q9UJQ4-2, residues 1-616)
# Notes: 8-mer, flanks averaged, mean of replicates
# Construct (chain): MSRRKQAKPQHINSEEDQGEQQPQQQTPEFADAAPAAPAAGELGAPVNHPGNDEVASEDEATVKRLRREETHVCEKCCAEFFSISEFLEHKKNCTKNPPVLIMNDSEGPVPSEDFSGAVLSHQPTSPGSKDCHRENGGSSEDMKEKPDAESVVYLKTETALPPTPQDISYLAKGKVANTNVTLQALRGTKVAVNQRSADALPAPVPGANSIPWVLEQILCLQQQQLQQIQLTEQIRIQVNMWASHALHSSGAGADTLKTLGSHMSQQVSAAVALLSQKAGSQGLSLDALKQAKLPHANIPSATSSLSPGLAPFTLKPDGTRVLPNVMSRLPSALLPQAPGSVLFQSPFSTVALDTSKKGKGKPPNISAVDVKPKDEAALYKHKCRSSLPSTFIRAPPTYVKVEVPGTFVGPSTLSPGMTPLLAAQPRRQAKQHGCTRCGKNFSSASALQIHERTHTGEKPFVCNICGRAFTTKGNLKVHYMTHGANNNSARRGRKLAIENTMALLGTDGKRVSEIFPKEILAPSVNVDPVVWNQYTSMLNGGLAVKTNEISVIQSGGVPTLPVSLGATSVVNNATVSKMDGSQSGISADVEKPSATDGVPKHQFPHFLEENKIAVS
Sequence,E-score
TAACCCTA,-0.0018
CCTTCTGC,-0.233
ACCGTTTA,0.0892
CCCTCCGA,-0.344
AATGCATG,0.125
TCCGTCGA,-0.0889
ATCGAAAC,-0.0737
ACATTCTA,0.202
ACTCGGTA,0.0384
AAGACTTG,0.15
ATGAAAGC,0.18
AATAGAGT,0.13
GATGACTA,0.0777
CCCCGACG,-0.28
AATTAAAG,0.285
CGTAGGTC,-0.189
GTGGATAA,0.1
AGCAAGGC,-0.267
CTCTTCCA,-0.00385
ACCACGTG,-0.275
CCCCTCTC,-0.224
GACCGCCC,-0.276
AAGTTTGA,0.133
GCTACATA,0.215
CAACGCAA,-0.0645

# Series 3 — target: ATF3, bZIP domain (human); method: DHFR protein complementation; sample: yeast; relative to: wild-type JUN-FOS pair; reading: higher = stronger binding
# Notes: single substitutions, most at no-binding floor
# Starting sequence: JUN, bZIP domain (human); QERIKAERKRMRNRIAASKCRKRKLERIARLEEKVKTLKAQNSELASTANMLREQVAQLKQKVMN; partner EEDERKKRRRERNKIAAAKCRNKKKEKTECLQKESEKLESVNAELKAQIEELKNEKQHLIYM
Change,binding fitness
L52R,-0.967 natural log
E33V,-0.337 natural log
E54S,-0.224 natural log
K34I,-0.292 natural log
L52S,-1.41 natural log
A29T,-0.144 natural log
A49S,-0.543 natural log
S47G,-0.14 natural log
L45V,-0.956 natural log
K39Q,-0.229 natural log
L38N,-1.42 natural log
E44F,-0.248 natural log
L38K,-1.17 natural log
T48Q,-0.0488 natural log
A57L,-0.317 natural log
E44D,-0.313 natural log
E44K,-0.151 natural log
M51E,-0.0646 natural log
A29D,-0.172 natural log
S43R,0.041 natural log
T37W,-0.0704 natural log
E33R,-0.21 natural log
S43M,-0.128 natural log
E44Y,-0.26 natural log
N42H,-0.146 natural log

# Series 4 — target: CCNF, cyclin fold, Cln2 fusion (human); method: yeast growth competition, sequencing; sample: yeast; notes: strong parent motif; relative to: not given; reading: higher = stronger binding
# Starting sequence: GMNC docking peptide (human); KNAKRNLSSEFAN
Change,normalised enrichment score
KNAGRNLSSEFAN [K4G],0.456
KNAKRNLSMEFAN [S9M],1.61
KNAKRNLSSKFAN [E10K],0.423
KNAKHNLSSEFAN [R5H],0.259
KTAKRNLSSEFAN [N2T],1.2
KRAKRNLSSEFAN [N2R],1.25
KKAKRNLSSEFAN [N2K],1.17
KNSKRNLSSEFAN [A3S],0.409
KNPKRNLSSEFAN [A3P],-0.141
KNAKRNLSSEKAN [F11K],0.426
KNARRNLSSEFAN [K4R],1.96
KNAKRNLSSEFIN [A12I],0.808
KNAERNLSSEFAN [K4E],-0.293
KNEKRNLSSEFAN [A3E],0.504
KNAKVNLSSEFAN [R5V],-0.263
KHAKRNLSSEFAN [N2H],0.62
KNAKRNLSSCFAN [E10C],0.7
KNAKRNLISEFAN [S8I],0.65
KNAKRNLSSEFLN [A12L],0.718
KNAKRQLSSEFAN [N6Q],0.726
KNAKSNLSSEFAN [R5S],0.959
KNAKRNLSSEFFN [A12F],0.591
KNAKGNLSSEFAN [R5G],-0.0448
KNAKRNLQSEFAN [S8Q],0.85
KNAKRNLSSEFSN [A12S],0.299

# Series 5 — method: RNA Bind-n-Seq; molecule type: RNA; sample: in vitro; concentration: not given; relative to: input RNA pool; reading: higher = stronger binding
# Target: RING finger protein unkempt homolog, zinc fingers 1-6, GST-SBP tag (UNK, Homo sapiens, UniProt Q9C0B0, residues 30-357)
# Notes: RNA with constant flanks, human and mouse sites, ends assumed
# Constant ends, left off below: GGGAGUUCUACAGUCCGACGAUC … CAACAGAGGAUUGAGCAUCA
# Target sequence (chain): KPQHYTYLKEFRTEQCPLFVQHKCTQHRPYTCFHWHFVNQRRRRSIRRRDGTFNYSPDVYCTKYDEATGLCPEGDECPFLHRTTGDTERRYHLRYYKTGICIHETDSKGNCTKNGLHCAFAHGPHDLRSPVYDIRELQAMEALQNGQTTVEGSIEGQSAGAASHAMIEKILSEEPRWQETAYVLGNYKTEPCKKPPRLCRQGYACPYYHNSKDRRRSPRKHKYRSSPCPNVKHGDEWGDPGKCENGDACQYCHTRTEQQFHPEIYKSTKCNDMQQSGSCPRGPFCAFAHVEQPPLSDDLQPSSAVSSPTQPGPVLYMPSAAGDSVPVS
Sequence,bound/input enrichment
GAUUCCAUUCGGACAUUAUUAGAUAAUGGAGCUUCAGUAAAUCAGUGUGAUUCAAAUGGGAGAACAUUAUUGGCUAAUGCUGCAUAUAGUGGCAGUCUUGAUGUAGUCAAUUUACUUGUC,0.22 ratio
CCCAGCACUUUGAUAAAGACUGUGGAUUGGUUGCUGGUGUUUUCCUUGUUCUUUUUAAUUAGUUUCAUUAUGUAUGCUACCAUCCGCACUGAGAGUAUUCGGUGGCUGAUUCCAGGACAA,5.17 ratio
ACCAGGGAUGAGACCAACUAUGGAAUUCCACAGCGUGCUCUGCGGGGUCACUCCCACUUUGUUAGUGAUGUGGUUAUCUCCUCAGAUGGCCAGUUUGCCCUCUCAGGCUCCUGGGAUGGA,0.155 ratio
GACUCCCUCAUUAGCAAUGACUCAGAAGUCAUCAUAGAGCCCAAGGAACAACUAGGACAUCAUGAUUCUCAGCAUUUGGAUAAAUUUGACAUUCCUUUUGAAAUGUUAGAAGAUGAUAUU,3.87 ratio
GUGACUCUUGUAUGUAAUCCUGUGGCUUAACUACUUCUCCCUCCUUGUCCAGCACUUUUCUAGCUCUCCCGUUCCCCAUCUCCAUUGCUCUGUACUCUUUUCUUUUUUCUUGUGCUGAGA,1.01 ratio
CUUUGUUUCUUGGGGCAUUUUUCCUUUUUUUUUUUUUUUUGUUUUUUUUUUACCCCUCCUUAGCUUUAUGCGCUCAGAAACCAAAUUAAACCCCCCCCCCAUGUAACAGGGGGGCAGUGA,69.6 ratio
UUGUCAGGUAGUAGUUAGUGCUUAGUAAUCGUGUAUUUGAUCUAGAUAGAAAUAGUCCCCGUGUUUCUCUAGCAUCAUGGUAACACUUGACUUUGCUCCCAUCUCUUAUCCUGAAAUGUA,0.442 ratio
AACCUUCCUUUUUUUAAAUUUUCUCCAGUCCCUGGGAGCAAGUUGCAGUCUUUUUUUUUUUUUUUUUUUUUUUUCCCUCUUGUGCUCAGUCGCCCUGUUCUUGAGGUCUCUUUUCUCUAC,1.32 ratio
GAGGAGAAGCAGCGGGAGCUGGCCCGGAAGGGCUCCCUGAAGAAUGGCAGCAUGGGUAGCCCUGUCAACCAGCAACCCAAGAAGAACAAUGUCAUGGCCCGAACAAGGCUGGUCGUCCCC,0.0973 ratio
ACAUUAAAGUCCUAAGUCAUCUAAGCCAUUCAUUGCCUGUGAAUUAUUCUGCUUGCUUUUUUAGUCAGGUGCUGCUUUUAAACAUUCUGAUGGGGAGCCUAGGGUUUAAAAUUAGCCUGU,1.56 ratio
GGAGACUCCACGGCAAGAAUCUGGAACCUCAGUGAGAACAGCACGAGUGGCCCUACGCAGCUCGUGCUUAGACACUGCAUACGGGAAGGAGGGCAGGACGUGCCCAGUAACAAGGAUGUC,0.087 ratio

# Some of these lines once more (series 3):
Change,binding fitness
T37W,-0.0704 natural log
E54S,-0.224 natural log
K34I,-0.292 natural log
S43M,-0.128 natural log
L52R,-0.967 natural log
E44Y,-0.26 natural log
L38N,-1.42 natural log
N42H,-0.146 natural log
M51E,-0.0646 natural log
